Published values of several laboratories.
± marks the error that the study gave.

Compound	assay	test system	conditions	measurement	result
CN[C@@H]1[C@H](O)[C@H](NC)[C@H]2O[C@]3(O)[C@H](O[C@@H]2[C@H]1O)O[C@H](C)C[C@H]3NC(=O)Cc1ccccn1	metabolic stability	rat, liver microsomes	90 min	compound remaining	83.7%
NCCCC[C@H](N)C(=O)NCC(=O)N[C@@H](CC(=O)O)C(=O)N[C@@H](CC(=O)O)C(=O)N[C@@H](Cc1ccccc1)C(=O)N[C@@H](Cc1ccccc1)C(=O)N1CCC[C@H]1C(=O)N[C@@H](Cc1ccc(O)cc1)C(=O)N[C@@H](Cc1ccc(O)cc1)C(=O)N[C@@H](Cc1c[nH]cn1)C(=O)N[C@@H](CO)C(=O)O	cytotoxicity	human cells	2 (unit not given)	CC50	> 100 µM
CN[C@@H]1[C@H](O)[C@H](NC)[C@H]2O[C@]3(O)[C@H](O[C@@H]2[C@H]1O)O[C@H](C)C[C@H]3NC(=O)Cc1cc(Cl)ccn1	metabolic stability	rat, liver microsomes	90 min	compound remaining	67.3%
CCCCCc1cc(OC(=O)C(N)C(C)C)c2c(c1)OC(C)(C)C1CCC(C)=CC21 (centres unmarked)		isolated rabbit cornea	3 h, pH 7.4, 34 °C, donor 2.5% RMβCD	Papp	4.75 ×10⁻⁶ cm/s
N[C@]1(c2ccccc2Cl)CCC[C@H](O)C1=O		Wistar rat, plasma	intravenous, 20 mg/kg	terminal half-life	8 ± 4 h
CCC(=C(c1ccc(Cl)cc1)c1ccc(OCCN2CCOCC2)cc1)c1ccccc1		human		CC50	15.1 µg/mL
N=C(N)NCCC[C@H](NC(=O)[C@@H](N)CO)C(=O)N[C@@H](Cc1ccc(O)cc1)C(=O)N[C@@H](Cc1ccc(O)cc1)C(=O)N1CCC[C@H]1C(=O)N[C@@H](Cc1ccccc1)C(=O)N[C@@H](Cc1ccccc1)C(=O)NCC(=O)N[C@@H](CC(=O)O)C(=O)N[C@@H](CO)C(=O)O	cytotoxicity	human cells	2 (unit not given)	CC50	> 100 µM
CN[C@@H]1[C@H](O)[C@H](NC)[C@H]2O[C@]3(O)[C@H](O[C@@H]2[C@H]1O)O[C@H](C)C[C@H]3NC(=O)Cc1cscn1	metabolic stability	rat, liver microsomes	90 min	compound remaining	109%
CC(CC(F)(F)F)(N=[N+]=[N-])C1C2OC(=O)C1C1(O)CC3OC34C(=O)OC2C14C (centres unmarked)			pH 7.4	logD	1.43
CSCC[C@@H]1NC(=O)[C@H](CCC(=O)O)NC(=O)[C@H](CC(C)C)NC(=O)[C@H](CC(C)C)NC(=O)[C@H](CCCCN)NC(=O)[C@H](CC(=O)O)NC(=O)[C@H](CC(=O)O)NC(=O)[C@H](CC(N)=O)NC(=O)[C@H](CC(=O)O)NC(=O)[C@@H]2CSSC[C@@H]3NC(=O)[C@H]([C@@H](C)O)NC(=O)[C@H](C(C)C)NC(=O)[C@@H]4CCCN4C(=O)[C@H](CSSC[C@H](NC(=O)[C@H](CC(=O)O)NC(=O)[C@H](Cc4ccccc4)NC(=O)[C@H](CC(N)=O)NC(=O)[C@H](CCCCN)NC(=O)[C@H](CCC(=O)O)NC(=O)[C@H](CC(=O)O)NC(=O)[C@H](C)NC(=O)[C@@H](NC(=O)[C@H](Cc4c[nH]cn4)NC(=O)[C@@H](N)CCC(=O)O)CSSC[C@@H](C(N)=O)NC(=O)[C@H](Cc4ccccc4)NC(=O)CNC3=O)C(=O)N[C@@H](CCCNC(=N)N)C(=O)N[C@@H](CCCNC(=N)N)C(=O)N[C@@H](CO)C(=O)N[C@@H](CC(C)C)C(=O)N[C@@H](CCCNC(=N)N)C(=O)N[C@@H](CC(N)=O)C(=O)NCC(=O)N[C@@H](CC(=O)O)C(=O)N2)NC(=O)[C@H](Cc2ccc(O)cc2)NC(=O)[C@H](Cc2ccc(O)cc2)NC(=O)CNC1=O	chemical stability	pig, simulated intestinal fluid		half-life	2.4 h
O=C(Cc1cccs1)N[C@@H]1C(=O)N2C(C(=O)O)=C(CSc3cccc[n+]3[O-])CS[C@H]12		mouse liver microsomes	0.5 µM	metabolic stability	stable
CC1=C[C@H]2c3c(O)cc(CCc4ccccc4)cc3OC(C)(C)[C@@H]2CC1	LC-MS/MS	male BALB/c mouse, brain	intraperitoneal, 40 mg/kg, 1 h, with: Δ9-trans-THC 10 mg/kg and cis-PET 50 mg/kg	brain concentration	662 nM
CCCCCc1cc(OC(=O)C(NC(=O)CCC(=O)O)C(C)C)c2c(c1)OC(C)(C)C1CCC(C)=CC21 (centres unmarked)		isolated rabbit cornea	3 h, pH 7.4, 34 °C, donor 1.5% RMβCD	Papp	6.5 ± 2.3 ×10⁻⁶ cm/s
N=C(N)NCCCCCCN1CCC23c4c5ccc(O)c4OC2c2nc4ccccc4cc2CC3(O)C1C5 (centres unmarked)		CD-1 mice, male	subcutaneous, 30 mg/kg, 80 min	plasma concentration	~1200 ng/mL

Repeated from above:
Compound	assay	test system	conditions	measurement	result
O=C(Cc1cccs1)N[C@@H]1C(=O)N2C(C(=O)O)=C(CSc3cccc[n+]3[O-])CS[C@H]12		mouse liver microsomes	0.5 µM	metabolic stability	stable
CC1=C[C@H]2c3c(O)cc(CCc4ccccc4)cc3OC(C)(C)[C@@H]2CC1	LC-MS/MS	male BALB/c mouse, brain	intraperitoneal, 40 mg/kg, 1 h, with: Δ9-trans-THC 10 mg/kg and cis-PET 50 mg/kg	brain concentration	662 nM
